Results gathered from unrelated publications.
± marks the error that the study gave. Converted amounts (≈) assume the structure as drawn.
Chain of UniProt Q8IU85 (whole entry, looked up): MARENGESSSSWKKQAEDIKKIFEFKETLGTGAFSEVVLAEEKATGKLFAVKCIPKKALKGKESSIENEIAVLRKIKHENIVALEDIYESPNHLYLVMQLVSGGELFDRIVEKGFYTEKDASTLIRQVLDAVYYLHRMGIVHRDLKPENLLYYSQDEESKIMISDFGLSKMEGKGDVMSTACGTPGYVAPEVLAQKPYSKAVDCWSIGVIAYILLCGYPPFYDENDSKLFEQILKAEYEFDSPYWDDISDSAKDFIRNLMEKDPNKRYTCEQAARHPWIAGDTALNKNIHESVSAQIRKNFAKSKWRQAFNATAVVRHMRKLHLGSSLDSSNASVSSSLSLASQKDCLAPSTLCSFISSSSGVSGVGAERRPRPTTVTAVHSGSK
Chain of UniProt Q9UKE5 (whole entry, looked up): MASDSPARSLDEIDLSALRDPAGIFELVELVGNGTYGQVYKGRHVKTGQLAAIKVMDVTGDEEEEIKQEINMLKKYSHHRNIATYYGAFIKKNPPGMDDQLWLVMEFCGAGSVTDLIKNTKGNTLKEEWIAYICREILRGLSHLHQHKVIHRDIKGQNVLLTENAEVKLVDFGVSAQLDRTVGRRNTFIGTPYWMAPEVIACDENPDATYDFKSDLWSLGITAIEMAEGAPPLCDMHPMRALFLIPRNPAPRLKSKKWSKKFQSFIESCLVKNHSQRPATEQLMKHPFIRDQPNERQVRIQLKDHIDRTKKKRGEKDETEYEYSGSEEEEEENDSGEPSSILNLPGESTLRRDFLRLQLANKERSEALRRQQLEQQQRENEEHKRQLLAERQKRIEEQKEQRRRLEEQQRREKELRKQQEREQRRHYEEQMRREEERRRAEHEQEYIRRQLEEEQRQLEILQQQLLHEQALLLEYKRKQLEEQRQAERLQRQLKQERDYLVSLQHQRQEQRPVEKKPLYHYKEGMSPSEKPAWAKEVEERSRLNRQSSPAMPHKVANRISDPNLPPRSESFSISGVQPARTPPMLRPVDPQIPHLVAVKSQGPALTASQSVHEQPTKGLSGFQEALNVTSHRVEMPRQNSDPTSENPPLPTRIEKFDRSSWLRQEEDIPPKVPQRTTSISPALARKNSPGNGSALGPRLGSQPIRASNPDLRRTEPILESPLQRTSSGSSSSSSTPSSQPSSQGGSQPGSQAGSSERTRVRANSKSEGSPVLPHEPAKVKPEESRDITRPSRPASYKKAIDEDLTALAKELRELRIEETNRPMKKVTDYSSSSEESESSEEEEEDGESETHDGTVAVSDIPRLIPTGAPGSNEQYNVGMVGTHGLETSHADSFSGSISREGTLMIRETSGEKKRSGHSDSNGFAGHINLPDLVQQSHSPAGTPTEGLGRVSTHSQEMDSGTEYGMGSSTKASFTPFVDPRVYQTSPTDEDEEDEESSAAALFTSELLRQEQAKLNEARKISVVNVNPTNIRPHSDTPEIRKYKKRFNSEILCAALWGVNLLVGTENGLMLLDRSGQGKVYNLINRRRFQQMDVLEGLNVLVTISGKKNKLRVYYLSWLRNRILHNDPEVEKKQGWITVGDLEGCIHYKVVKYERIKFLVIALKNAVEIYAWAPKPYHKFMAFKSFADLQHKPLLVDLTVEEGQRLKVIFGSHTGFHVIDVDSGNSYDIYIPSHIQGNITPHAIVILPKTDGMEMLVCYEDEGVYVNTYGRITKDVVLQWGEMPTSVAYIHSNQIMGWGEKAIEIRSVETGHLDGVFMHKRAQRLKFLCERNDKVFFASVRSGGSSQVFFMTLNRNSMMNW

Structure (SMILES) | target or system | test | test system | conditions | how to read | endpoint | result
CC(=O)NC[C@H]1CN(c2ccc(N3CCOCC3)c(F)c2)C(=O)O1 | Enterococcus faecalis | agar dilution | vancomycin-susceptible, 74 isolates | – | – | MIC50 | 1 µg/mL (≈ 2.96 µM)
CC(C)C[C@H](NC(=O)C[C@H](O)[C@H](CC(C)C)NC(=O)[C@H](Cc1c[nH]cn1)NC(=O)CNC(=O)[C@@H](NC(=O)[C@H](C)NC(=O)[C@H](Cc1c[nH]c2ccccc12)NC(=O)[C@H](CCC(N)=O)NC(=O)[C@@H](Cc1ccccc1)NC(=O)COCCOCCNC(=O)CCC(C(=O)O)N1CCN(CC(=O)O)CCN(CC(=O)O)CCN(CC(=O)O)CC1)C(C)C)C(N)=O (stereo partly shown) [lutetium-177 labelled] | – | – | BALB/c nu/nu mice, female, heart | intravenous, 100 pmol, 30 min, time course 0.5 h, together with: PA 300 µg | – | tissue uptake | 0.8 ± 0.2 %ID/g
Cc1cc(F)cc2c(CCC(=O)N[C@@H]3C(=O)NC[C@H]3O)c(-c3ccc(F)cc3)[nH]c12 | – | – | mice, APOL1 G2, single copy | oral, 30 mg/kg twice daily, day 13, dosing from day 6, together with: IFNγ plasmid injection | – | UACR | 377 µg/mg
CN[C@H](CC(C)C)C(=O)N[C@H]1C(=O)N[C@@H](CC(N)=O)C(=O)N[C@H]2C(=O)N[C@H]3C(=O)N[C@H](C(=O)N[C@H](C(=O)O)c4cc(O)cc(O)c4-c4cc3ccc4O)[C@H](O)c3ccc(c(Cl)c3)Oc3cc2cc(c3O[C@@H]2O[C@H](CO)[C@@H](O)[C@H](O)[C@H]2O[C@H]2C[C@](C)(N)[C@H](O)[C@H](C)O2)Oc2ccc(cc2Cl)[C@H]1O | Enterococcus faecalis | agar dilution | compound-intermediate | 20 isolates | – | MIC50 | 8 µg/mL (≈ 5.52 µM)
CN1CCN(c2ccc(Nc3ncc4cc(C#N)c(=O)n(C5CCCC5)c4n3)cc2)CC1 | Calcium/calmodulin-dependent protein kinase type 1D (CAMK1D, Homo sapiens, UniProt Q8IU85) | – | – | – | – | IC50 | 2450 nM
Oc1ccccc1-c1n[nH]cc1-c1ccnc2ccccc12 | CDC5 (Candida albicans) | kinase binding, MIB/MS competition | Candida albicans lysate | 1 µM | relative to: DMSO | log2 fold change | 0.15
N#Cc1ccc2c(c1)[C@H]1CCCN(C(=O)c3ccc4[nH]cnc4c3)[C@H]1C2 | – | – | human | 10 mg, end of trial | – | median ACTH level | 4.2 pmol/L
Cn1cc(-c2ccc(-c3cncc(Cl)c3N3CCC4(CCNC4=O)CC3)cc2)cn1 | COLO 205 | gene expression, microarray, refers to: CXCL16 mRNA | – | concentration not given, 2 h | relative to: untreated cells | log2 fold change | 2.37
CC(=O)N(C)[C@H]1CCN(C(=O)c2cnc3c(c2)C[C@](C)(c2ccc(F)cc2)N3)C1 | vanin activity | – | human, whole blood ex vivo stimulated | 15 mg, 1 h post-dose | relative to: baseline | pantothenic acid level | 17.4%
CC(C)NCC(O)c1ccc(O)c(O)c1 (stereo not shown) | mouse ventricular cardiomyocytes | – | – | dose not given, 0.027 s | – | sarcomere length | 1.8 µm
OC(CCN1CCCCC1)(c1ccccc1)C1CC2C=CC1C2 (stereo not shown) | – | resting-state EEG | healthy elderly humans | oral, 4 mg, eyes open, LS mean | relative to: baseline | theta power, EEG, Fz Cz, change in | 24.4%
c1coc(-c2n[nH]cc2-c2ccnc3ccccc23)c1 | orf19.4575 Candida albicans | kinase binding, MIB/MS competition | Candida albicans lysate | 1 µM | relative to: DMSO | log2 fold change | -0.26
CC[C@@H]1[C@H](F)C(=O)N[C@@H]1COc1nccc2cc(C(N)=O)c(OC)cc12 | TRAF2 and NCK-interacting protein kinase (TNIK, Homo sapiens, UniProt Q9UKE5) | ATP probe binding, KiNativ profiling, refers to: Lys1 probe site | THP-1 cell lysate | 0.2 mM | – | inhibition | -20.6%

Some of these lines once more:
Structure (SMILES) | target or system | test | test system | conditions | how to read | endpoint | result
c1coc(-c2n[nH]cc2-c2ccnc3ccccc23)c1 | orf19.4575 Candida albicans | kinase binding, MIB/MS competition | Candida albicans lysate | 1 µM | relative to: DMSO | log2 fold change | -0.26
